Measured values pooled from the literature.
Parts stem from different laboratories: compare values within a part only. Positions count from the first letter of the parent shown.

Study 1
Target: Sal-like protein 4, full length isoform B (SALL4, Homo sapiens, UniProt Q9UJQ4-2, residues 1-616)
Technique: universal PBM
Molecule type: double-stranded DNA, one strand shown
Medium: in vitro
Concentration: not given
Setting: 8-mer, flanks averaged, mean of replicates
Direction: higher = stronger binding
Measurement: E-score
Sequence = AGCGTCGA; result = -0.0808
Sequence = GATTCGGC; result = -0.211
Sequence = CACCTGGC; result = -0.268
Sequence = GGCTTGTA; result = -0.0327
Sequence = AGCTTGGA; result = -0.263
Sequence = ACGACATC; result = -0.191
Sequence = AAACTTCT; result = 0.117
Sequence = TACATGAA; result = 0.299
Sequence = TTACCAAA; result = 0.274
Sequence = ACGGTGTG; result = -0.151
Sequence = AATACCGA; result = 0.135
Sequence = AACTAGGG; result = -0.00806
Sequence = CTCAGCGC; result = -0.224
Sequence = CAGCGCAG; result = -0.219
Sequence = ACGAGCTA; result = 0.0271
Sequence = ACAGTTGC; result = 0.0335
Sequence = AAGATTTA; result = 0.22
Sequence = ACCTGTCG; result = -0.0487
Sequence = ACAGTCGG; result = -0.125
Sequence = ATCTGTGG; result = -0.206
Sequence = ACTACCCT; result = -0.0534
Sequence = GGATACCC; result = -0.209
Sequence = AGTGGTAG; result = -0.0489
Sequence = AGTAATGC; result = 0.121
Sequence = AGAGGGAG; result = -0.168

Study 2
Target: Transcriptional repressor CTCF (CTCF, Homo sapiens, UniProt P49711, residues 1-727, full length assumed)
Chain of UniProt P49711 (whole entry, looked up): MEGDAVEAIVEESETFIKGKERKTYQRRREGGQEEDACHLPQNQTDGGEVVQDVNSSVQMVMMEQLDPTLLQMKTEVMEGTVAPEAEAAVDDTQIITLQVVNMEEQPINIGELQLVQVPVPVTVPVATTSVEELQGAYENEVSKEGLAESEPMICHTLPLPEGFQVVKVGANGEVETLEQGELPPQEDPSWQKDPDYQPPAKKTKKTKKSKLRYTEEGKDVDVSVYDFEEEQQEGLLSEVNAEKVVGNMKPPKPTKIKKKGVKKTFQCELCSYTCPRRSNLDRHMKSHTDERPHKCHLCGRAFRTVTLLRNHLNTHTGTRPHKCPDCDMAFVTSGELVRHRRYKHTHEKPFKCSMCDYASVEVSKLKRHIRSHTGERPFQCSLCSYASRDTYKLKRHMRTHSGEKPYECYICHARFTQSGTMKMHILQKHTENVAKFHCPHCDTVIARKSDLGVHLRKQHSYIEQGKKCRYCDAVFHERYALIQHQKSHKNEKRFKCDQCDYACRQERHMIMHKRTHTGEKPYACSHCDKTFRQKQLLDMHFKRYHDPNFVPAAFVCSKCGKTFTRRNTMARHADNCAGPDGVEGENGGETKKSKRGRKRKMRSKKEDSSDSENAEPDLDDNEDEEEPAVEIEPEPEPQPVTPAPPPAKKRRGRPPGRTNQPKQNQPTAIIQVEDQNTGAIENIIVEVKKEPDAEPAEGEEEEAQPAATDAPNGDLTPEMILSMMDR
Technique: protein-binding microarray
Molecule type: double-stranded DNA, one strand shown
Medium: in vitro
Concentration: not given
Setting: k-mer, scored over probes, only values ≥0.25
Direction: higher = stronger binding
Measurement: E-score
Sequence = TACGATAA; result = 0.306
Sequence = TTATTGAA; result = 0.259
Sequence = AGTATAAA; result = 0.336
Sequence = ATAATGCG; result = 0.375
Sequence = AAATATGT; result = 0.32
Sequence = AGGTGGCG; result = 0.416
Sequence = CGCATTAC; result = 0.302
Sequence = CTTGCGCC; result = 0.361
Sequence = CGCAAAAA; result = 0.309
Sequence = TTGAAAAA; result = 0.257
Sequence = ACGAGTAA; result = 0.265
Sequence = AATACTCG; result = 0.265
Sequence = ATATTGCG; result = 0.282
Sequence = TGCGGTAA; result = 0.263
Sequence = GAAATATA; result = 0.333
Sequence = ACAATACT; result = 0.313
Sequence = GTAGCGCA; result = 0.313
Sequence = AGCGCGCG; result = 0.289
Sequence = ACGTGCGC; result = 0.297
Sequence = ATCTGCGC; result = 0.296

Study 3
Target: CCNB1, cyclin fold, Cln2 fusion (human)
Technique: yeast growth competition, sequencing
Medium: yeast
Setting: strong parent motif
Relative to: not given
Direction: higher = stronger binding
Measurement: normalised enrichment score
Starting sequence: PKN2 docking peptide (human); VSAVRKLDFSDTM; partner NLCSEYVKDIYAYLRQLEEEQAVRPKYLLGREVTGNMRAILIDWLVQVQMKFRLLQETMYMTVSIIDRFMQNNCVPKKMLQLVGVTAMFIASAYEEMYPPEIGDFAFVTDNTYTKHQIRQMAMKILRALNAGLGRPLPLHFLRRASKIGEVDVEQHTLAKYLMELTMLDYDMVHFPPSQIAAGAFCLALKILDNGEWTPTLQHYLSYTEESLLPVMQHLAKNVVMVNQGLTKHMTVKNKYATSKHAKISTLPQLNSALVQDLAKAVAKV
Change = V4P; result = 0.306
Change = D11S; result = 2.76
Change = F9W; result = 1.75
Change = T12F; result = 3.55
Change = D11Q; result = 3
Change = S10Y; result = 3.4
Change = V4Y; result = 0.942
Change = T12I; result = 3.32
Change = T12A; result = 4
Change = L7A; result = 0.364
Change = K6T; result = 1.35
Change = L7G; result = -0.0237
Change = L7T; result = 0.126
Change = V4I; result = 3.2
Change = S2P; result = 2.42

Study 4
Target: Eukaryotic initiation factor 4A-I (EIF4A1, Homo sapiens, UniProt P60842, residues 1-406, full length assumed)
Chain of UniProt P60842 (whole entry, looked up): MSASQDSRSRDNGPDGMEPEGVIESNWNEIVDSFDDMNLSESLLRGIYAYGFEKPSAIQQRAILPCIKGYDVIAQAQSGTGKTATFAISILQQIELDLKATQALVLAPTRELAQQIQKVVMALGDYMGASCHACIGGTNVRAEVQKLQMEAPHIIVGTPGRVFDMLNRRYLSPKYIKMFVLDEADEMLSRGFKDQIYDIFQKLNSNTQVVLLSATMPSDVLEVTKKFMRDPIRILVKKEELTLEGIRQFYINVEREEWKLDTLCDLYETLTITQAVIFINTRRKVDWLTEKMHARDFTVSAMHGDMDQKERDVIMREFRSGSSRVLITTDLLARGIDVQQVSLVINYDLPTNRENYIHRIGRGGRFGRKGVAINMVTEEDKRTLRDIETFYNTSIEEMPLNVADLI
Technique: RNA Bind-n-Seq
Molecule type: RNA
Medium: in vitro
Concentration: 15 pmol
Setting: 4-mer, random 30-nt RNA, single round
Together with: DMSO vehicle, 2 mM AMP-PNP
Relative to: input library
Direction: higher = stronger binding
Measurement: 4-mer enrichment
Sequence = CCAC; result = 1.76 fold
Sequence = UUCU; result = 1.06 fold
Sequence = CAUU; result = 0.988 fold
Sequence = CCCG; result = 1.14 fold
Sequence = UGGA; result = 1.05 fold
Sequence = AAGA; result = 1.08 fold
Sequence = CGAC; result = 1.46 fold
Sequence = AGAA; result = 1.33 fold
Sequence = UCUG; result = 1.16 fold
Sequence = CUUU; result = 0.829 fold
Sequence = GGAA; result = 1.21 fold

Excerpt of the above (study 3):
Change = L7A; result = 0.364
Change = K6T; result = 1.35
Change = L7G; result = -0.0237
Change = L7T; result = 0.126
